Measurements of several laboratories.
Parts stem from different laboratories: compare values within a part only. Changes are numbered by the printed parent chain.

Block 1
Target: CCNE2, cyclin fold, Cln2 fusion (human)
Technique: yeast growth competition, sequencing
Matrix: yeast
Notes: strong parent motif
Relative to: not given
Reading: higher = stronger binding
Endpoint: normalised enrichment score
Starting sequence: viral docking peptide; YKVKRRLVFGADD
G10L: 4.24
R5A L7A: 0.486
R5N: 0.253
D12A: 5.22
D12Q: 5.51
K4Y: 1.14
D12N: 5.62
V8T: 5.38
R5M: 0.589
R6M: 2.35
D12M: 5.37
L7A: 0.422
D12H: 5.53
K4T: 2.14
A11L: 5.6
K4A: 2.98
L7H: 0.498
V8K: 5.05
R5W: 1.01
L7N: 0.673
A11D: 6.11
V8I: 5.46
K2H: 6.36
R6S: 0.937
R6A: 2.56

Block 2
Target: BATF2, bZIP domain (human)
Technique: DHFR protein complementation
Matrix: yeast
Notes: single substitutions, most at no-binding floor
Relative to: wild-type JUN-FOS pair
Reading: higher = stronger binding
Endpoint: binding fitness
Starting sequence: JUN, bZIP domain (human); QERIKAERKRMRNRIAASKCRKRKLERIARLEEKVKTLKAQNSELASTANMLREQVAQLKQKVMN; partner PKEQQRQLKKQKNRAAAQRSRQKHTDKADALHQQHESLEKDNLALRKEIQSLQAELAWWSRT
Q55H: -0.603 natural log
L38Q: -0.958 natural log
T48C: -0.428 natural log
L59S: -0.843 natural log
A46D: -0.947 natural log
Q41A: -0.421 natural log
L52D: -0.842 natural log
S43L: -0.215 natural log

Block 3
Target: Fragile X messenger ribonucleoprotein 1, C-terminal low-complexity region (Fmr1, Mus musculus, UniProt P35922)
Technique: RNA Bind-n-Seq
Form: RNA
Matrix: in vitro
Concentration: 200 nM
Notes: whole 134-nt RNA, ends assumed
Added: 150 mM KCl
Relative to: input library
Reading: higher = stronger binding
Endpoint: log2 enrichment
All sequences stand within: GGGAGUUCUACAGUCCGACGAUC … UGGAAUUCUCGGGUGUCAAGG
GUCCUGUGCUACACAUCGUAUGUACCGAAUCGGCCCCCCGGGCCCCCCGGCCCCCCGGGAAAGUAUUAUGUUACGCCGUUCGGAUCUGCA: -0.406
GUCCUGUGCUACACAUCGUAUGUACCGAAUCGGCCCCCCGGCCCCCCGGGGCCCCCCGGAAAGUAUUAUGUUACGCCGUUCGGAUCUGCA: -0.173
CCUCAAGUCCUGUGCUACACAUCGUAUGUACCGAAUCGGAAGGAAGGAAGGGAAAGUAUUAUGUUACGCCGUUCGGAUCUGCACUUCCAG: 0.286
UUAGGAAGAGAAGACAAGGUGGCCUCUCAUUAGAAGAAGAGGAAGAGGAGGAUGCCAAUUCAGAAUCUGAGGGAAGCAGUAGUGAGGAGG: -1.09
GCAGGAAGUAAAAACAAAUGGACAUGCUUCGGAUAGUGGCAGGGGUGGGGGUUGCUAAGGAAAGGGUGGGAUGGGAGUGGGUAAAGAGUU: 0.158
GCAGGAAGUAAAAACAAAUGGAAAUGCUUCGGAUAGUGGCAGGGGUGGAAAUUGCUAAGGAAAGGGUGGGAUGGGAGUGGGUAAAGAGUU: 0.346
UGGGAGGUGGAUUUUGUUUAUUUUUUGAGCUCAUUUCCAGGGGUGGGAAUUUUUUUUUAAUAUGUGUCAUGAAUAAAGUUGUUUUUGAAA: 0.302
AGUCCUGUGCUACACAUCGUAUGUACCGAAUCGGUUUUUGGGUUUUUGGGUUUUUGGGAAAGUAUUAUGUUACGCCGUUCGGAUCUGCAC: -0.336

Block 4
Target: Prothrombin, mature alpha-thrombin (F2, Homo sapiens, UniProt P00734)
Technique: aptamer microarray, sandwich
Form: DNA with 2'F-ANA
Matrix: in vitro
Concentration: 200 nM
Notes: whole 15-mer aptamer, many near background
Added: Cy3 exosite-II aptamer, 400 nM
Reading: higher = stronger binding
Endpoint: mean fluorescence intensity
Sequence: GGTTGGTGTGGTTGG
2'F-ANA at 1 2 4 8 9 10 11 14: 48.6 a.u.
2'F-ANA at 1 3 7 8 9 11 14: 100 a.u.
2'F-ANA at 3 4 5 6 7 10 11 12 14: 65.5 a.u.
2'F-ANA at 1 2 5 6 7 8 9 11 13 15: 51.5 a.u.
2'F-ANA at 1 2 3 5 6 7 11 15: 59.5 a.u.
2'F-ANA at 6 7 8 9 13 14 15: 196 a.u.
2'F-ANA at 1 2 6 8 9 11 13 15: 119 a.u.
2'F-ANA at 3 4 5 6 12 13 14 15: 54.6 a.u.

Block 5
Substance: Histone H2B type 1-C/E/F/G/I (Homo sapiens, UniProt P62807)
Technique: cross-linking MS
Notes: hits only
Endpoint: interaction screen
H2AC25 (Homo sapiens, UniProt Q7L7L0): cross-linked
SEPTIN1 (Homo sapiens, UniProt Q8WYJ6): cross-linked
RCC2 (Homo sapiens, UniProt Q9P258): cross-linked
H2AC18 (Homo sapiens, UniProt Q6FI13): cross-linked
H2AC6 (Homo sapiens, UniProt Q93077): cross-linked
H3-4 (Homo sapiens, UniProt Q16695): cross-linked

For quick reference, copied from above (block 1):
D12M: 5.37
L7A: 0.422
D12H: 5.53
K4T: 2.14
A11L: 5.6
